# Measurements gathered from unrelated publications.
# Every numbered part comes from another study and shows a few of its results, in no order. Positions count from the first letter of the parent shown.
# UniProt P00519, sequence (whole entry, unmodified, looked up): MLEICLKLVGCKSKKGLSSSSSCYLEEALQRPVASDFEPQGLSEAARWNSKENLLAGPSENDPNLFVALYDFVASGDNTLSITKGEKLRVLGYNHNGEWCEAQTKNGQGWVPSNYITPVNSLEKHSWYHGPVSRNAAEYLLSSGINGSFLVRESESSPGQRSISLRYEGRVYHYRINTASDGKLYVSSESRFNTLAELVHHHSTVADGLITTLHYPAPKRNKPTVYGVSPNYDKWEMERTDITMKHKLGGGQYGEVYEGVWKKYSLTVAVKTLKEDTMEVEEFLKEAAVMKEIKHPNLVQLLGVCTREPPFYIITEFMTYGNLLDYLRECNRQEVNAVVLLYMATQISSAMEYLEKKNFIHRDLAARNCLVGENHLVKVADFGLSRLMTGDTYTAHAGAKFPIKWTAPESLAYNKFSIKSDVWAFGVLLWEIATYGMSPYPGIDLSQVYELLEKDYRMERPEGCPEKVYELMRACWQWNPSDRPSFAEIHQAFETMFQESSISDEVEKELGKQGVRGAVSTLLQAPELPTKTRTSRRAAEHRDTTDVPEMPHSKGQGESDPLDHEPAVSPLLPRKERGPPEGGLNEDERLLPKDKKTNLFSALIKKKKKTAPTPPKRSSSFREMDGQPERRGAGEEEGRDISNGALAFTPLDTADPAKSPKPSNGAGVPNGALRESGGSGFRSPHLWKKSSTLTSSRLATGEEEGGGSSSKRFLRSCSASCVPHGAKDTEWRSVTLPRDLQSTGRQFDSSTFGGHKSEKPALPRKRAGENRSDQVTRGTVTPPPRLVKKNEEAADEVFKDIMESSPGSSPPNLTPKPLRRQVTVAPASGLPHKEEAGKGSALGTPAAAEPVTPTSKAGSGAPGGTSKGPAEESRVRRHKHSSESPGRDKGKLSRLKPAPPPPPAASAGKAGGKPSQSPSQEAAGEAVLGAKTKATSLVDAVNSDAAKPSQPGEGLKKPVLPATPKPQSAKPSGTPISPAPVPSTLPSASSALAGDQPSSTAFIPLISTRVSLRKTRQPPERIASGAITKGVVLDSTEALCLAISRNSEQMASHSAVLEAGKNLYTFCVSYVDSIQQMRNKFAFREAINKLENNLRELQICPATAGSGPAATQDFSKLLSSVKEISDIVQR
# UniProt O75716, sequence (whole entry, looked up): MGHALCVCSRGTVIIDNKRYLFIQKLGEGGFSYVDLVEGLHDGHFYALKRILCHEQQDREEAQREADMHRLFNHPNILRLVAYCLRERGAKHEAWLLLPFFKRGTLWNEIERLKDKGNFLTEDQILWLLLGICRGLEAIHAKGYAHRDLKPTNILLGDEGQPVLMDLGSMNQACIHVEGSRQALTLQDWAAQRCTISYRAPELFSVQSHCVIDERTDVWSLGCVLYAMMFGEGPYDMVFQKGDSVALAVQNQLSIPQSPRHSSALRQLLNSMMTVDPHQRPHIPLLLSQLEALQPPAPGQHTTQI
# UniProt Q8NE63, sequence (whole entry, looked up): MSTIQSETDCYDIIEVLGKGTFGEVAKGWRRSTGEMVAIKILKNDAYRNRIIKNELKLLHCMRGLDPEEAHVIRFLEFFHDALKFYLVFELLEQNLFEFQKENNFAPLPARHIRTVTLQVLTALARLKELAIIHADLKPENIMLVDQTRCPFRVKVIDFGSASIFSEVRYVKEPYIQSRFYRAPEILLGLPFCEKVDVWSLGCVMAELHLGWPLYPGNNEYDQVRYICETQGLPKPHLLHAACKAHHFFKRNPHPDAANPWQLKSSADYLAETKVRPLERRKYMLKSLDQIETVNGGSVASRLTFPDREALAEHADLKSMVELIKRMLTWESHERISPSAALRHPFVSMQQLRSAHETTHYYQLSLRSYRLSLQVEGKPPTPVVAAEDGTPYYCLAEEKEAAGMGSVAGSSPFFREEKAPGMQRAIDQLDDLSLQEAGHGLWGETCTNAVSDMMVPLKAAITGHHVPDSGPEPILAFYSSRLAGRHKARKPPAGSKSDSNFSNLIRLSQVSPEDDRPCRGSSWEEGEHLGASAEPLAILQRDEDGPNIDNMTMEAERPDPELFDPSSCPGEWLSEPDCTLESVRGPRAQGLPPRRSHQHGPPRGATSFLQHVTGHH
# UniProt O95819, sequence (whole entry, looked up): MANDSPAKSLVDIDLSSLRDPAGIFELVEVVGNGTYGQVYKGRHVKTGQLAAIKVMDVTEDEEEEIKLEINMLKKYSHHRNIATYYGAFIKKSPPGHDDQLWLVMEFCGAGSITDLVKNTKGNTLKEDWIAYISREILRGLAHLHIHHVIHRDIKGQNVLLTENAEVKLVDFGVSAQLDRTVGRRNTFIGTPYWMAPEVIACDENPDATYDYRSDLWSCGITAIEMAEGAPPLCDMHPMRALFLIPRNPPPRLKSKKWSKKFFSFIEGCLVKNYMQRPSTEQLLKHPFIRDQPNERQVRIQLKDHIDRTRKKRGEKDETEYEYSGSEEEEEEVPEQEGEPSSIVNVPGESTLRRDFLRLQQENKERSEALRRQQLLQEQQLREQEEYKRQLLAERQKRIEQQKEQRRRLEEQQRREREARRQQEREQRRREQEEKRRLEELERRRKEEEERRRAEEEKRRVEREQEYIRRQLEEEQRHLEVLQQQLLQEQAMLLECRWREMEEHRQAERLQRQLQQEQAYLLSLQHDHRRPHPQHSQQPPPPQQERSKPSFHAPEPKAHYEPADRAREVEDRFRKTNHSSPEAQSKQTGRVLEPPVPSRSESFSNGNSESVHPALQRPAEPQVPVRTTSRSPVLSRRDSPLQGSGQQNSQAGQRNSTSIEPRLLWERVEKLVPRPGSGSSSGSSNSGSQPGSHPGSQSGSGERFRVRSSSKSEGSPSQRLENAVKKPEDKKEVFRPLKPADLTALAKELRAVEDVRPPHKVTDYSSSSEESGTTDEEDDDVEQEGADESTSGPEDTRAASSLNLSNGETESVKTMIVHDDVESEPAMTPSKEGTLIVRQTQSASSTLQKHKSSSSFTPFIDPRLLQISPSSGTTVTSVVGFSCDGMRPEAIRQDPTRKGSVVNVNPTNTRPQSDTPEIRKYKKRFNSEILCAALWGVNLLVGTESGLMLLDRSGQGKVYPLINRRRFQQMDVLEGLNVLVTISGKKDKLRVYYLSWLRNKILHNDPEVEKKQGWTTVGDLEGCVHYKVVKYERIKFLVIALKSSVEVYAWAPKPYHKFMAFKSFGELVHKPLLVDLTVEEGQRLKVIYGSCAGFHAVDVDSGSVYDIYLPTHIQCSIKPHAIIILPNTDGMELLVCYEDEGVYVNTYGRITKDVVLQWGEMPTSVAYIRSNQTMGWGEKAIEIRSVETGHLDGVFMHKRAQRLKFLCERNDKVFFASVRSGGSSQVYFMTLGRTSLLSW
# UniProt P22612, sequence (whole entry, looked up): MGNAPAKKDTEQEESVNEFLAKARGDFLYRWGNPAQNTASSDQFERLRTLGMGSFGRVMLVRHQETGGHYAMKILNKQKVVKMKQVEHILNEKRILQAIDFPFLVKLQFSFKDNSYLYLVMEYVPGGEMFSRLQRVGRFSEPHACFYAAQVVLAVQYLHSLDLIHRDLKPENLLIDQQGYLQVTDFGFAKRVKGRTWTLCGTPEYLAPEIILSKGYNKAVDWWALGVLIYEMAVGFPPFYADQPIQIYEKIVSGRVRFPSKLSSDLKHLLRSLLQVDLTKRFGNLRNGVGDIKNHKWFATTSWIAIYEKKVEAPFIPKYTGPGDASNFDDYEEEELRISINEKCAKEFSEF
# UniProt O96013, sequence (whole entry, looked up): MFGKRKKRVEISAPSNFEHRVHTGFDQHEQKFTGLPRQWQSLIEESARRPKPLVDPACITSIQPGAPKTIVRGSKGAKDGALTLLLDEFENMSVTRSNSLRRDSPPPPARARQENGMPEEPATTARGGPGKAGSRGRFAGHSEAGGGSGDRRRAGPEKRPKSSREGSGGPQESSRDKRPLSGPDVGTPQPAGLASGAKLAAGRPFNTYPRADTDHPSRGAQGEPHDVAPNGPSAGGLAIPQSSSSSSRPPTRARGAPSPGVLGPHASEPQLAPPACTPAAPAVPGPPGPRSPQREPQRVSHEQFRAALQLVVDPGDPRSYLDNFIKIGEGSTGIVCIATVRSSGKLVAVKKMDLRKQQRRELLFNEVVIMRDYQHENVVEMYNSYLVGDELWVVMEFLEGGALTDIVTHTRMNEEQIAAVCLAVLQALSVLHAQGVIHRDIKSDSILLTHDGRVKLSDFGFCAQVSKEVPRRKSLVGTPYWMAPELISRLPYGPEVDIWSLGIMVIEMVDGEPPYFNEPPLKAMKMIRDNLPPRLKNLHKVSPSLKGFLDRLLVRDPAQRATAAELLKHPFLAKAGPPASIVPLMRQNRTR
# UniProt Q16644, sequence (whole entry, looked up): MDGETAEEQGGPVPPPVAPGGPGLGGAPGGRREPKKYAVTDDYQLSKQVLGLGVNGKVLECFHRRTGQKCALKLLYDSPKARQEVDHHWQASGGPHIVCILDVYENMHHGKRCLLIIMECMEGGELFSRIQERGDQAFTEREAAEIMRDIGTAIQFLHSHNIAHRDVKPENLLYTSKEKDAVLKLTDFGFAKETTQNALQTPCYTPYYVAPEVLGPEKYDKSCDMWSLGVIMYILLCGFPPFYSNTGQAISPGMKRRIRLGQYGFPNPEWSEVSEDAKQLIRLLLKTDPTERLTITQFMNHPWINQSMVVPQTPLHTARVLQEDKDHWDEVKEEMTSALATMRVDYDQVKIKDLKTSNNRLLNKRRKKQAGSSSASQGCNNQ

# Block 1
# Target: HLF, bZIP domain (human)
# Method: DHFR protein complementation
# Medium: yeast
# Setting: single substitutions, most at no-binding floor
# Baseline: wild-type JUN-FOS pair
# Direction: higher = stronger binding
# Parent: JUN, bZIP domain (human); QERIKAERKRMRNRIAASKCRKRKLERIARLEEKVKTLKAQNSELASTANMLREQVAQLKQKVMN; partner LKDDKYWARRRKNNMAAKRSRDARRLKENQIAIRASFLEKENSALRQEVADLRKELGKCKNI
Change,binding fitness
N42R,-1.46 natural log
A46E,-1.43 natural log
L59R,-1.45 natural log
R30S,-1.45 natural log
E44Y,-1.57 natural log
A49H,-1.55 natural log
K34E,-1.27 natural log
S47F,-1.43 natural log

# Block 2
# Structure (SMILES): CC(C)(C)n1nc(Cc2cccc3ccccc23)c2c(N)ncnc21
# Observed: enzyme activity
# Mode: inhibitor
# Tested at: 0.5 µM
# Baseline: control
target,remaining activity [%]
"Tyrosine-protein kinase receptor UFO (AXL, Homo sapiens, UniProt P30530)",103
"Ephrin type-B receptor 4 (EPHB4, Homo sapiens, UniProt P54760)",30.7
"Phosphorylase b kinase gamma catalytic chain, skeletal muscle/heart isoform (PHKG1, Homo sapiens, UniProt Q16816)",91.3
"Mitogen-activated protein kinase kinase kinase kinase 4 (MAP4K4, Homo sapiens, UniProt O95819)",43.5
"Serine/threonine-protein kinase WNK3 (WNK3, Homo sapiens, UniProt Q9BYP7)",91.2
"Calcium/calmodulin-dependent protein kinase type II subunit beta (CAMK2B, Homo sapiens, UniProt Q13554)",98.9
"Cyclin-dependent kinase 1, with cyclin B (CDK1, Homo sapiens, UniProt P06493)",107
"cAMP-dependent protein kinase catalytic subunit gamma (PRKACG, Homo sapiens, UniProt P22612)",55.2
"Dual specificity tyrosine-phosphorylation-regulated kinase 3 (DYRK3, Homo sapiens, UniProt O43781)",94
"Cyclin-dependent kinase 4, with cyclin D3 (CDK4, Homo sapiens, UniProt P11802)",95.8
"Testis-specific serine/threonine-protein kinase 2 (TSSK2, Homo sapiens, UniProt Q96PF2)",87.6
"Homeodomain-interacting protein kinase 4 (HIPK4, Homo sapiens, UniProt Q8NE63)",92.4
"3-phosphoinositide-dependent protein kinase 1 (PDPK1, Homo sapiens, UniProt O15530)",103
"MAP kinase-activated protein kinase 3 (MAPKAPK3, Homo sapiens, UniProt Q16644)",110
"Tyrosine-protein kinase ABL1 (ABL1, Homo sapiens, UniProt P00519)",91.1
"Serine/threonine-protein kinase 16 (STK16, Homo sapiens, UniProt O75716)",97.6

# Block 3
# Target: Eukaryotic initiation factor 4A-I (EIF4A1, Homo sapiens, UniProt P60842, residues 1-406, full length assumed)
# UniProt P60842, sequence (whole entry, looked up): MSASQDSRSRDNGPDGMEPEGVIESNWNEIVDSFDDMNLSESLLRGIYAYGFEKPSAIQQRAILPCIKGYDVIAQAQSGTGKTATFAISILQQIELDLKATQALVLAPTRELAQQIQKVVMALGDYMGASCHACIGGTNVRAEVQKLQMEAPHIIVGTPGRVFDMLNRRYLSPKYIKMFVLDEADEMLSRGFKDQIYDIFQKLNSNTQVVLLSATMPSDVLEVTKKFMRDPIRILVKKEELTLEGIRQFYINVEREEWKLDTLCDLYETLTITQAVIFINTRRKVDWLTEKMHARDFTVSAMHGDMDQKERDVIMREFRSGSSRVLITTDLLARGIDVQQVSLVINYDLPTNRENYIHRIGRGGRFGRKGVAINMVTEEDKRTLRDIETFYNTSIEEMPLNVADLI
# Method: RNA Bind-n-Seq
# Form: RNA
# Medium: in vitro
# Tested at: 90 pmol
# Setting: 4-mer, random 30-nt RNA, single round
# Added: 3 µM iPr-DMDA-PatA, 2 mM ADP, 2 mM phosphate
# Baseline: input library
# Direction: higher = stronger binding
Oligonucleotide,4-mer enrichment [fold]
CGAU,1.13
AUGG,0.897
AAUA,1.53
AAGU,1.24
CGUG,0.743
CUGA,1.07
GCUU,0.834
GGAC,0.877

# Block 4
# SMILES: COc1ccc2c(c1)O[C@H](c1ccc(OC)c(OC)c1)C[C@@H]2NC(=O)C1(c2ccc3c(c2)OC(F)(F)O3)CC1
# Tested at: 1 µM
target,observed,method,remaining binding [%]
"Serine/threonine-protein kinase 35 (STK35, Homo sapiens, UniProt Q8TDR2)",cell-free assay,competition with immobilised ligand,100
"Serine/threonine-protein kinase PRP4 homolog (PRPF4B, Homo sapiens, UniProt Q13523)",cell-free assay,competition with immobilised ligand,56
"Mast/stem cell growth factor receptor Kit (KIT, Homo sapiens, UniProt P10721, A829P)",cell-free assay,competition with immobilised ligand,69
"Serine/threonine-protein kinase PAK 4 (PAK4, Homo sapiens, UniProt O96013)",cell-free assay,competition with immobilised ligand,100
"Cyclin-dependent kinase-like 3 (CDKL3, Homo sapiens, UniProt Q8IVW4)",cell-free assay,competition with immobilised ligand,97
"Serine/threonine-protein kinase SIK1 (SIK1, Homo sapiens, UniProt P57059)",,competition binding,100
"Tyrosine-protein kinase FRK (FRK, Homo sapiens, UniProt P42685)",cell-free assay,competition with immobilised ligand,100
"Tyrosine-protein kinase ABL1, phosphorylated (ABL1, Homo sapiens, UniProt P00519, F317I)",cell-free assay,competition with immobilised ligand,100

# A few entries again (block 2):
target,remaining activity [%]
"Cyclin-dependent kinase 1, with cyclin B (CDK1, Homo sapiens, UniProt P06493)",107
"cAMP-dependent protein kinase catalytic subunit gamma (PRKACG, Homo sapiens, UniProt P22612)",55.2
